Experimental data gathered from unrelated publications.
Every numbered part comes from another study and shows a few of its results, in no order.

Set 1
Target: Centromere-binding protein 1, full length, His-tagged (CBF1, Saccharomyces cerevisiae, UniProt P17106, residues 1-351)
Chain of UniProt P17106 (whole entry, looked up): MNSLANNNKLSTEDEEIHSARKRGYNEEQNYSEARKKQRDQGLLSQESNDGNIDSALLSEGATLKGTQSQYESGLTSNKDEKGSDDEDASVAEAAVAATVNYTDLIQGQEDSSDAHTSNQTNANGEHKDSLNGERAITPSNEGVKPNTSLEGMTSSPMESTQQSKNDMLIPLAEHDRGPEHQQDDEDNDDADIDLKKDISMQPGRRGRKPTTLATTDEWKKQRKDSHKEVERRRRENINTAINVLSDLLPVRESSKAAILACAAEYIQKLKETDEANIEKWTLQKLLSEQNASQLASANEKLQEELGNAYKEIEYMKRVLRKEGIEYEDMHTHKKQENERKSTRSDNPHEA
Technique: competition protein-binding microarray
Form: double-stranded DNA, one strand shown
Matrix: in vitro
Tested at: 2 µM
Setting: whole 60-bp probe, lowest competitor level
With: Pho4 competitor, 0.05 µM
Direction: higher = stronger binding
With `TTTGTCCTCGCACTCCGCGTGGTGAACTTGTTCTTGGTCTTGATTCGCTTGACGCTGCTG` the fluorescence intensity was 60.4 a.u.
The fluorescence intensity of `GTTACCTAATAACTTCATGTGATATGCTCCCCCTTCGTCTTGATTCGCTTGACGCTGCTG` is reported as 287 a.u.
The fluorescence intensity of `GGGCTAAAGAGCCGTCCCGTGATGGCCTGTAATGGCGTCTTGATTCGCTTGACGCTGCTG` is reported as 293 a.u.
The fluorescence intensity of `AAGATTACACTCGCGAACGTGCGATCGGGATGATACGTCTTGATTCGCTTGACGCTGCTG` is reported as 85 a.u.
With `ATCGCTTTGCATCCTTACGTGCGGAAGATGGCATCGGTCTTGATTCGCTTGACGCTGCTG` the fluorescence intensity was 101 a.u.
`GGTCCGGAACTGGTGTGCATGACAGCCGCGGAATGCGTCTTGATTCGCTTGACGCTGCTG` gave a fluorescence intensity of 56.9 a.u.
For `AAAGCGGTAATTTGATACGTGGGTGCAGATATCTATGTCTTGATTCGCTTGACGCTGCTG`, the fluorescence intensity was 60.1 a.u.
`AAGAACATTCTTTCTGTCGTGATGGTGTACTGGTGTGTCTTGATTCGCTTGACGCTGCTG` has a fluorescence intensity of 83.7 a.u.
For `CGCGAACATCGGTCCCACGCTGATAGTCTCCACTATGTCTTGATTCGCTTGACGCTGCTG`, the fluorescence intensity was 89 a.u.
`CGTCCTAGTGATTGTTAGGTGGGTGCCATGAGGAAGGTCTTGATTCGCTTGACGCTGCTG` gave a fluorescence intensity of 77.8 a.u.
With `CTTTCCCGATCTTACCACGTGTTTTTAGCACATTTGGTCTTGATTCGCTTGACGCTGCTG` the fluorescence intensity was 1380 a.u.
`CATACCCAACCTTGGCGGGTGGGTGAAGATATTTGTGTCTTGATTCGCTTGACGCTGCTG` has a fluorescence intensity of 72 a.u.
The fluorescence intensity of `CGGGGTTAAGTTTGAACGGTGGGTGGCTTGCAGCAGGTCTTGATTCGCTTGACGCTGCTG` is reported as 63.6 a.u.
With `CATACCCAACCTTTTCACGTGCACTAAGATATTTGTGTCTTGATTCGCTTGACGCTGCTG` the fluorescence intensity was 1430 a.u.
The fluorescence intensity of `CGTCCTAGTGATTGTCACCCGACTTCCATGAGGAAGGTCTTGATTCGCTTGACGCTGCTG` is reported as 78.6 a.u.
`CTACTGGAGATGCAGGTCGTGATGGACTTTTAGCTTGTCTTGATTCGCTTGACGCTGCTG` has a fluorescence intensity of 76.7 a.u.
`AAATCATTGATTTCCAATCTTTAAAAAATCCATCCAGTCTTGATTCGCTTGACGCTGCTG` has a fluorescence intensity of 89.2 a.u.
The fluorescence intensity of `CGCTACCAACTGCGCCATGTGCCCTAAAACGCGTACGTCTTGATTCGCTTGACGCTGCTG` is reported as 134 a.u.
With `CTTCTGTAAATTTGCCGAGTGGGTGGACGCGCCCCGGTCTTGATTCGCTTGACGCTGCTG` the fluorescence intensity was 76.4 a.u.
For `GTCTTGTCTCATTGGGGTGTGGGTGTCCCCACTTCAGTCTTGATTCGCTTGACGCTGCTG`, the fluorescence intensity was 79.3 a.u.
The fluorescence intensity of `AACAGTGATATTCGTCACGTGACTCGGATAAAACTCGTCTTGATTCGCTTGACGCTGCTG` is reported as 37800 a.u.
The fluorescence intensity of `CACCCAAGCGTTAGGCACGTGTGGGCCGGAGTTTACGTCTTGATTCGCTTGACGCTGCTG` is reported as 525 a.u.
`TCTGCATATTTGTAAAACGTGCAAAAAAGTAAAGAAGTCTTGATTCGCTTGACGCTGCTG` gave a fluorescence intensity of 238 a.u.
The fluorescence intensity of `CTTTCCCGATCTTGTGGGGTGGGTGTAGCACATTTGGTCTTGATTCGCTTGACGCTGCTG` is reported as 81.1 a.u.
For `AGGATAATGTATTGTCATGCTGACGTATCCCATTCTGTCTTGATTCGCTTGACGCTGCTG`, the fluorescence intensity was 114 a.u.

Set 2
Target: Sal-like protein 4, full length isoform B (SALL4, Homo sapiens, UniProt Q9UJQ4-2, residues 1-616)
Technique: universal PBM
Form: double-stranded DNA, one strand shown
Matrix: in vitro
Tested at: not given
Setting: 8-mer, flanks averaged, mean of replicates
Direction: higher = stronger binding
`GTCTGTGA` has an E-score of -0.0678.
The E-score of `CCGGTTGC` is reported as -0.283.
The E-score of `GGGGGAAC` is reported as -0.357.
`TGCAGAAA` has an E-score of 0.165.
The E-score of `CGCCAGGC` is reported as -0.334.
`AGGCGACA` gave an E-score of -0.274.
`TGTAAGAA` has an E-score of 0.134.
`CCCGCTAA` has an E-score of -0.222.
`AATAGGTG` has an E-score of 0.132.
The E-score of `CATTACAA` is reported as 0.261.
`AAGCTTAC` has an E-score of 0.122.
For `GAGCTGGA`, the E-score was -0.278.
For `AAATCTTG`, the E-score was 0.131.
`CAGCGGGC` gave an E-score of -0.225.
The E-score of `AGATACAG` is reported as 0.208.
The E-score of `AATGCCGC` is reported as -0.147.
`AGCATGAA` gave an E-score of 0.0561.
`AAAAGCCT` has an E-score of -0.0507.
`GGCCAGCA` has an E-score of -0.245.
The E-score of `AACTTACA` is reported as 0.198.
`AGCGGAGA` gave an E-score of -0.128.
The E-score of `AGCAATTG` is reported as 0.108.
With `GCCGACAC` the E-score was -0.225.
`ACCTTTCG` gave an E-score of -0.0968.
With `GCCGACGA` the E-score was -0.207.

Set 3
Target: RNA binding protein fox-1 homolog 2, RRM domain, GST-SBP tag (RBFOX2, Homo sapiens, UniProt O43251-10, residues 100-194)
Technique: RNA Bind-n-Seq
Form: RNA
Matrix: in vitro
Tested at: 365 nM
Setting: natural RNA segment, single round, ends assumed
Reference: no-protein control
Direction: higher = stronger binding
Residues (chain): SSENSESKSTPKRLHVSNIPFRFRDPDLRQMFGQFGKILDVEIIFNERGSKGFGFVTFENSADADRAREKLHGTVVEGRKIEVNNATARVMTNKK
Under “RBNS enrichment (R)”, `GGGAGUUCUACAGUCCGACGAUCUUUGUGUAAAUUUGUAUCCACACAAAUUCAGUCUCUGAAUACACAGUAUUCAGAGUCUCUGAUACACAGUAAUUGUGACAAUAGGGCUAAAUGUUUAAAGAAAUCAAAAGUGGAAUUCUCGGGUGCCAA` is recorded as 0.323.
For `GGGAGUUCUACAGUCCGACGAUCACCUAGGCUCCUGGACCCACACCCUCCUCAGGCUGACUUUACUGCCUUGGGAGAAGUCUACAUUUCCCAGACAAUAGUCUAGGCCUCUGGAACAGUUUCCUUCUCUGCUUUGGAAUUCUCGGGUGCCAA`, “RBNS enrichment (R)” read 0.246.
`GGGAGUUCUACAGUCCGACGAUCGUCAGACUGUUGCUACAUACAAUUGCCUUUGUAUCUUCGUAUGAAAUAAAAGGUCAUUUGUUCCUGUUGUGUUUAUUUUUCUUGGUUUUAUUGUUAGUUCCUGUUAGACGUGGAAUUCUCGGGUGCCAA` — result for “RBNS enrichment (R)”: 0.771.
Under “RBNS enrichment (R)”, `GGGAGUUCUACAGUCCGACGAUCAACUGACACAUCUGUUCUGUUGGUAAAUAAGGAGACACCCGGUAAAACUAAUUUAGGUUCCAAUAGUUGUGCAGAACUUGUGUUUCUUGGUGAUUCUCCUCAAGUACUAGUGGAAUUCUCGGGUGCCAA` is recorded as 0.462.
Under “RBNS enrichment (R)”, `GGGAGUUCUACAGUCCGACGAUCAUUCAAGUGUUUCAAAAUUCAAAGCAUUGUAUUCAAAGUUGCAGUGAAGGCAUCAACUUAUGUAAAAACUCAGAAGGAAGGCUCCUCUGAUAAAAACACAGCUCCUUUAUUGGAAUUCUCGGGUGCCAA` is recorded as 0.485.
`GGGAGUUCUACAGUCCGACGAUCAGUAGGCAUCUAAAGAAUAUAAAGCCUCAAAUCUUCCUUACUGUCUCUCUUGUCACAUGGAAUCUACAUGUGUUUGAACUAUUGCUUUAGGGUUUAAAAUAGGGGAGCCUUGGAAUUCUCGGGUGCCAA`: “RBNS enrichment (R)” 0.365.
`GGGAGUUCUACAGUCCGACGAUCGCCUCUCCCCAUGGCUGGGGCAGCCCCGCCCCCUCCCUGGGUGCAUCUGCCCUCUGAGUUCUUUCUGUGUGAUCUAUUUUUUAAGAAGAGUUUGUAUUAUUUUUUCAUAAUGGAAUUCUCGGGUGCCAA`: “RBNS enrichment (R)” 1.52.
For `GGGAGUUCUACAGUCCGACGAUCUGUAUAUGGCUCCACUGUGGCUUGUGACACUUUUAAAAUCAUCCGUAUGUCAGUGUAUCUGGAUACACGAGGAAAAGGAAAGAGUCUCAGAGUGGAACAAAGAGUGGGAAUGGAAUUCUCGGGUGCCAA`, “RBNS enrichment (R)” read 0.631.
`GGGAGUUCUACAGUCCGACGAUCCUCGCACAGGGCAGGAUGCUGAACGGGCUACAUUAAAAACAAACCUCUUUCUCUCUCUAUUUAUAAAUGAGAACUGUUGGACGACACCUUUGACAUAUCAGCCAAUACCAUGGAAUUCUCGGGUGCCAA`: “RBNS enrichment (R)” 0.404.
For `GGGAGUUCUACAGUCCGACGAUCUUGCUUUCAUUAUUACCAAGUCAAGAGUACAACAGAGCUAGUGAACCGUAGCAGCAUGCGAAGCAGGGCUGUGAACUAUCACCACACAGUGCAUUGUCCCGUGGAGGUGUUGGAAUUCUCGGGUGCCAA`, “RBNS enrichment (R)” read 3.7.
`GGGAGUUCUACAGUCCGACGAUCCUAACUUUGCCACUUCAAGCCUCAAGACAGAUUCAUGUAGCAGUUCCUCAAAACCCCCUGGAGGGGCAAAAGAUGACAGCGACACAGAGAAAGUUUGGGGCAUGAUAUAUUGGAAUUCUCGGGUGCCAA`: “RBNS enrichment (R)” 0.354.
`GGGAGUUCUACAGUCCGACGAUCUUAUUUUUAUUUGCAAUCUCUAAAAACAAAUUUUAUUUCAAUUACGUCUUACUGAAGAAGUCUUUCCAGCUAGAAAGAUGUUCUGACACUGUCUGAUCGUGAAGCACCUGUGGAAUUCUCGGGUGCCAA` — result for “RBNS enrichment (R)”: 0.404.

Set 4
Target: Interferon regulatory factor 5, full length, phosphomimetic (IRF5, Homo sapiens, UniProt Q13568-2, residues 1-514, S451D/S453D/S456D/S462D)
Technique: protein-binding microarray
Form: double-stranded DNA, one strand shown
Matrix: in vitro
Tested at: 940 nM top
Setting: 60-bp whole probe
With: salmon DNA 0.4 mg/ml
Reference: random background probes
Direction: higher = stronger binding
Shared flanks, not repeated: GCCTAGCAC … GTCTTGATTCGCTTGACGCTGCTG
`CACGGTTTCCTTTCCCTGACGTGCTAG`: “fitted relative affinity” 1.61 z-score.
For `TTAGAACTAGGGTTTCGATTAGTGCTA`, “fitted relative affinity” read 3.43 z-score.
`ATAGGTATCGGGACTGGGTTAGTGCTA`: “fitted relative affinity” 3.29 z-score.
For `TTAGGACTGCTTTTCCTTCAGTGCTAG`, “fitted relative affinity” read -0.397 z-score.
Under “fitted relative affinity”, `TTAGATATCAGTCTCGAGTAGTGCTAG` is recorded as 0.991 z-score.
`GACGGACTGGACTTCCGGGACGTGCTA` — result for “fitted relative affinity”: -0.428 z-score.
Under “fitted relative affinity”, `TTAGGTTTCGGATCCGGTTAGTGCTAG` is recorded as 9.07 z-score.
`GACGATTTCAGTTTCTAGACGTGCTAG`: “fitted relative affinity” 2.08 z-score.
Under “fitted relative affinity”, `GCCGATCTCAGTCTCGAGACGTGCTAG` is recorded as 1.55 z-score.
`AACGGTTTCGGGACTGGGGACGTGCTA` — result for “fitted relative affinity”: 7.19 z-score.
Under “fitted relative affinity”, `GACGGTATCGCTATCGGGACGTGCTAG` is recorded as 3.74 z-score.
`TTAGGTCCCGGTCTCGGTTAGTGCTAG` — result for “fitted relative affinity”: 2.28 z-score.
For `GGCGGACTGGGGACTGGGGACGTGCTA`, “fitted relative affinity” read -0.51 z-score.
For `TTAGGTATCGGTTCCGGTTAGTGCTAG`, “fitted relative affinity” read 10.3 z-score.
Under “fitted relative affinity”, `GTAGAACTGGGGTTTCGATTAGTGCTA` is recorded as 5.32 z-score.
`GACGGTTTCTGTTCCGGGACGTGCTAG`: “fitted relative affinity” 6.06 z-score.
Under “fitted relative affinity”, `TATTACCTCATCTTTCCCTGCGTGCTA` is recorded as 1.07 z-score.
For `CCTCCCCTTGCTTTCCAATTGTGCTAG`, “fitted relative affinity” read 0.209 z-score.
`GACGGACAGGACACTGGGGACGTGCTA`: “fitted relative affinity” -0.406 z-score.
`TTAGGTTTCGGACTGGTTTAGTGCTAG`: “fitted relative affinity” 7.15 z-score.
For `TTAGGACGGGGACTGGGTTAGTGCTAG`, “fitted relative affinity” read -0.0368 z-score.
Under “fitted relative affinity”, `TTAGGACTGGGGACTGTGTTAGTGCTA` is recorded as -0.462 z-score.
For `TCATGTTTGGTCCTGAAACTGTGCTAG`, “fitted relative affinity” read 0.303 z-score.
